Assay results gathered from unrelated publications.

For O=C1/C(=C(\O)C2CCCCC2)C(=O)[C@@]2(C(=O)OCc3ccccc3)CS[C@H](c3ccccc3)N12, the MIC was 3.91 µg/mL (Streptomyces; bacterial growth, broth dilution; Mueller-Hinton broth; 24 h, 35 °C).
For N=C(N)NCCC[C@@H]1NC(=O)[C@H](CCCNC(=N)N)NC(=O)[C@@H](C(c2ccccc2)c2ccccc2)NC(=O)[C@H](Cc2c[nH]c3ccccc23)NC(=O)[C@@H](C(c2ccccc2)c2ccccc2)NC(=O)[C@@H](CCCNC(=N)N)NC(=O)[C@@H](CCCNC(=N)N)NC1=O, the MIC was 16 µg/mL (Candida albicans; SC5314).
The MIC of CC1(C)C(NC(=O)C(=NOCC(=O)N2CC3CCCC3C2C(=O)O)c2csc(N)n2)C(=O)N1OS(=O)(=O)O (stereo not shown) is reported as ≤ 0.03 µg/mL (Providencia rettgeri; agar dilution; ATCC 31052, susceptible).
COc1c(NC(=O)c2ccc(NC(=O)[C@H](Cc3c[nH]nn3)NC(=O)c3ccc(NC(=O)/C(C)=C/c4ccc(O)cc4)cc3)cc2)ccc(C(=O)Nc2ccc(C(=O)O)cc2)c1O has an MIC of 1 µg/mL (Mycolicibacterium phlei; DSM 750).
Cc1c(CN(C)C(=O)/C=C/c2cnc3c(c2)CC(N)C(=O)N3)oc2ccccc12 (stereo not shown) has an MIC of 2 µg/mL (Escherichia coli; broth microdilution; AR-0349).
The MIC of CN[C@H](CC(C)C)C(=O)N[C@H]1C(=O)N[C@@H](CC(N)=O)C(=O)N[C@H]2C(=O)N[C@H]3C(=O)N[C@H](C(=O)N[C@H](C(=O)O)c4cc(O)cc(O)c4-c4cc3ccc4O)[C@H](O)c3ccc(c(Cl)c3)Oc3cc2cc(c3O[C@@H]2O[C@H](CO)[C@@H](O)[C@H](O)[C@H]2O[C@H]2C[C@](C)(N)[C@H](O)[C@H](C)O2)Oc2ccc(cc2Cl)[C@H]1O is reported as 32 µM (Salmonella enterica serovar Typhimurium; 7731, Mueller-Hinton broth; 18 to 20 h, 37 °C).
The MIC of O=C1C(=C(O)NC23CC4CC(CC(C4)C2)C3)C(=O)C2(C(=O)OCc3ccc([N+](=O)[O-])cc3)CSC(c3ccccn3)N12 (stereo not shown) is reported as 15.6 µg/mL (Streptomyces; bacterial growth, broth dilution; Mueller-Hinton broth; 24 h, 35 °C).
For CC1(C)[C@H](NC(=O)/C(=N\OC2(C(=O)O)CCCC2)c2csc(N)n2)C(=O)N1OS(=O)(=O)O, the MIC was ≤ 0.03 µg/mL (Providencia rettgeri; agar dilution; ATCC 31052, susceptible).
N=C(N)NCCC[C@@H]1NC(=O)[C@@H](CCCNC(=N)N)NC(=O)[C@H](CCCNC(=N)N)NC(=O)[C@@H](C(c2ccccc2)c2ccccc2)NC(=O)[C@@H](C(c2ccccc2)c2ccccc2)NC(=O)[C@@H](C(c2ccccc2)c2ccccc2)NC(=O)[C@@H](CCCNC(=N)N)NC1=O has an MIC of 32 µg/mL (Candida albicans; CA3).
For CC1C=CC=CC(C)C2C=CC3CC(C)(O)C(Cl)C(C)C3C2C(=O)C(Cl)(Cl)C(=O)C(C)C(=O)O1 (stereo not shown), the MIC was 0.1 µg/mL (Staphylococcus aureus; MRSA clinical isolate; resistant: OXA,DOX,TET).
CC1(C)[C@H](NC(=O)/C(=N\OCc2c(Cl)cccc2Cl)c2csc(N)n2)C(=O)N1OS(=O)(=O)O has an MIC of ≤ 0.03 µg/mL (Providencia rettgeri; agar dilution; ATCC 31052, susceptible).
The MIC of O=C1/C(=C(\O)C2CCCCC2)C(=O)[C@@]2(C(=O)OCc3ccccc3)CS[C@H](c3ccc(Br)cn3)N12 is reported as 15.6 µg/mL (Streptomyces; bacterial growth, broth dilution; Mueller-Hinton broth; 24 h, 35 °C).
CC1(C)[C@H](NC(=O)/C(=N\OC2(C(=O)O)CC2)c2nsc(N)n2)C(=O)N1OS(=O)(=O)O has an MIC of 0.25 µg/mL (Citrobacter freundii; agar dilution; ATCC 43864, susceptible).
O=C1C(=C(O)C=Cc2ccccc2)C(=O)C2(C(=O)OCc3ccccc3)CSC(c3ccc(Br)cn3)N12 (stereo not shown) has an MIC of 15.6 µg/mL (Streptomyces; bacterial growth, broth dilution; Mueller-Hinton broth; 24 h, 35 °C).
With CC(C)(O/N=C(\C(=O)N[C@@H]1C(=O)N(OS(=O)(=O)O)C1(C)C)c1nsc(N)n1)C(=O)O the MIC was 32 µg/mL (Citrobacter freundii; agar dilution; ATCC 43864, susceptible).
COc1cc(C(=O)O)ccc1NC(=O)c1ccc(NC(=O)c2ccc(NC(=O)[C@H](Cc3c[nH]nn3)NC(=O)c3ccc(NC(=O)/C(C)=C/c4ccc(O)cc4)cc3)cc2)c(OC)c1O gave an MIC of 2 µg/mL (Mycolicibacterium phlei; DSM 750).

For quick reference, copied from above:
Cc1c(CN(C)C(=O)/C=C/c2cnc3c(c2)CC(N)C(=O)N3)oc2ccccc12 (stereo not shown) has an MIC of 2 µg/mL (Escherichia coli; broth microdilution; AR-0349).
